Values quoted from earlier work that unrelated publications cite.
Lines come from different studies, so protocols differ. “And” joins repeats or separate records; there may be more than shown. Numbers after ± are the reported error. Converted amounts (≈) assume the structure as drawn.
SLCO1B1: Solute carrier organic anion transporter family member 1B1 (SLCO1B1, Homo sapiens, UniProt Q9Y6L6)
PTGS2: Prostaglandin G/H synthase 2 (PTGS2, Homo sapiens, UniProt P35354)
CDK2: Cyclin-dependent kinase 2 (CDK2, Homo sapiens, UniProt P24941)
PSMB1/PSMB8/PSMB3: PSMB1/PSMB8/PSMB3 (Homo sapiens, UniProt P20618+P28062+P49720)

SMILES | target or system | test | test system | setting | how to read | measurement | value
O=C1N=C(C(=O)c2c[nH]c3ccccc23)N/C1=C\c1c[nH]c2cc(O)ccc12 | HER2 (c-erbB-2) kinase | inhibitor | – | – | – | IC50 | 7.4 µg/mL
CC1=NN(c2ccc(C)c(C)c2)C(=O)/C1=N\Nc1cccc(-c2cccc(C(=O)O)c2)c1O | SLCO1B1 | inhibitor | – | – | – | IC50 | 2700 nM
NC(=O)N1CCC(CC(=O)N2CCC([C@H]3c4ncc(Br)cc4CCc4cc(Cl)cc(Br)c43)CC2)CC1 | farnesyltransferase | enzyme activity | – | together with: H-ras substrate | – | IC50 | 1.9 nM
Nc1cc(C(F)(F)F)c(-c2nc(N3CCOCC3)nc(N3CCOCC3)n2)cn1 | Homeodomain-interacting protein kinase 3 (HIPK3, Homo sapiens, UniProt Q9H422) | enzyme activity | – | 10 µM | reference: untreated | remaining activity | 78%
Nc1ncnc2c1ncn2C1CCCC1 | human phosphatidylinositol 4-kinase | – | – | – | – | IC50 | ~10000 nM
Cc1ccc(-c2cc(C(F)(F)F)nn2-c2ccc(C(N)=S)cc2)cc1 | PTGS2 | inhibitor | – | – | – | IC50 | 7070 nM
C[C@@H](O[C@H]1OCCN(Cc2n[nH]c(=O)[nH]2)[C@H]1c1ccc(F)cc1)c1cc(C(F)(F)F)cc(C(F)(F)F)c1 | neurokinin-1 receptor | – | – | – | – | IC50 | 0.1 nM
CN(C)c1ccc(/C=C/c2cn(C(=O)/C=C/c3ccccc3)cc2C(=O)c2ccccc2)cc1 | PTGS2 | inhibitor | – | – | – | IC50 | 550 nM
CO/N=C(\C(=O)N[C@@H]1C(=O)N2C(C(=O)O)=C(CSc3nc(=O)c(=O)[nH]n3C)CS[C@H]12)c1csc(N)n1 | SLCO1B1 | inhibitor | – | – | – | IC50 | 470000 nM
COc1cc2ncnc(Nc3ccc(Oc4ccccc4)cc3)c2cc1OC | Tyrosine-protein kinase Lck (LCK, Homo sapiens, UniProt P06239) | – | – | – | – | IC50 | 88 nM
COc1ccnc2c1c(-c1ccnc(N)n1)c1ccnc(N)n12 | CDK2 | – | – | – | – | IC50 | 80 nM
Cc1[nH]c(C)c(-c2ccc(-c3cc(C(F)(F)F)cc(C(F)(F)F)c3)nc2)c(=O)c1Br | Plasmodium falciparum | whole cell extended time | 3D7 | 72 h | – | IC50 | 80 nM
CCCCCCC/C=C/C(=O)CCc1ccc(O)c(OC)c1 | PTGS2 | inhibitor | – | – | – | IC50 | 17500 nM
CCOc1cc(C(=O)N[C@@H](CCCNC(=N)N)C(=O)NC(CC(=O)N(C)[C@@H](Cc2ccccc2)C(N)=O)CC(C)C)ccc1CN1CCNCC1 (stereo partly drawn) | CDK2 | – | – | – | – | IC50 | 22600 nM
O=C(O)CCCCCN1C(=O)/C(=C2/C(=O)N(Cc3ccc(F)cc3)c3ccccc32)SC1=S | sheep AANAT | inhibitor | – | literature value | – | IC50 | 11000 nM
Cc1c2cc(I)ccc2nc(-c2ccc(Cl)cc2)[n+]1[O-] | PTGS2 | inhibitor | – | – | – | IC50 | 6050 nM
CC(C)CC(CC(=O)N(C)[C@@H](Cc1ccccc1)C(N)=O)NC(=O)[C@H](CCCNC(=N)N)NC(=O)c1ccc(CN2CCNCC2)c(O)c1 (stereo partly drawn) | CDK2 | – | – | – | – | IC50 | 7420 nM
CN(C)Cc1ccc(-c2nc3cccc4c3n2CCNC4=O)cc1 | Poly [ADP-ribose] polymerase 1 (PARP1, Homo sapiens, UniProt P09874) | enzyme activity, inhibitor | – | – | – | IC50 | 29 nM
CN1C/C=C/CCOc2cccc(c2)-c2ccnc(n2)Nc2ccc(N3CCOCC3)c(c2)C1 | CDK2 | – | – | – | – | IC50 | 74 nM
COc1ccc(/C=N/n2c(Cc3ccc(C)cc3)n[nH]c2=S)c(O)c1 | PTGS2 | inhibitor | – | – | – | IC50 | 1760 nM

SMILES | target or system | test | test system | setting | how to read | measurement | value
CC1(C)S[C@@H]2[C@H](NC(=O)[C@H](N)c3ccccc3)C(=O)N2[C@H]1C(=O)O | Escherichia coli | – | clinical isolate RKI-No_581/16 | – | – | MIC | > 16 µg/mL
Cc1c(C#N)c(Nc2ccc(S(N)(=O)=O)cc2)nc2ncnc(N)c12 | CDK2 | – | – | – | – | IC50 | 10000 nM
O=C(O)C=Cc1ccc(O)cc1 | PTGS2 | inhibitor | – | – | – | IC50 | 36500 nM
CC(C)C[C@H](NC(=O)[C@H](Cc1ccccc1)NC(=O)c1cnccn1)B(O)O | 20S proteasome (Plasmodium falciparum, UniProt A0A5K1K7U1+Q8IJT1) | inhibitor | – | literature value | – | IC50 | 6.8 ± 0.3 nM
CNC(C)C1CCC(N)C(OC2C(N)CC(N)C(OC3OCC(C)(O)C(NC)C3O)C2O)O1 (stereo not drawn) | Escherichia coli | – | clinical isolate RKI-No_593/16 | – | – | MIC | 2 µg/mL (≈ 4.19 µM)
Cc1[nH]c(C)c(-c2ccc(Oc3ccc(Cl)cc3)cc2)c(=O)c1Br | Plasmodium falciparum | whole cell extended time | 3D7 | 72 h | – | IC50 | 590 nM
COc1ccc(CNc2c(CO)cnc3c(C4CC4)cc(C#N)cc23)cc1Cl | cAMP and cAMP-inhibited cGMP 3',5'-cyclic phosphodiesterase 10A (PDE10A, Homo sapiens, UniProt Q9Y233) | – | – | – | – | IC50 | > 10000 nM
CCOCC(=O)N1CCC[C@H](C(=O)NCc2nc(-c3ccc(C#N)cc3)cs2)C1 | PSMB1/PSMB8/PSMB3 | enzyme activity, inhibitor | – | – | – | IC50 | > 30000 nM
CC1(C)c2cc(OCCN3CCOCC3)ccc2C(=O)c2c1oc1cc(C#Cc3cc(OCC4CC4)ccn3)ccc21 | Vascular endothelial growth factor receptor 2 (KDR, Homo sapiens, UniProt P35968) | inhibitor | – | – | – | IC50 | 757 nM
CCCCCCCCCCCCOC(=O)c1cc(O)c(O)c(O)c1 | PTGS2 | inhibitor | – | – | – | IC50 | 18600 nM
CN1C/C=C/CCOc2cccc(c2)-c2ccnc(n2)Nc2ccc(OC(F)(F)F)c(c2)C1 | CDK2 | – | – | – | – | IC50 | 57 nM
O=C(O)C1=CCCN(CCON=C(c2ccccc2)c2ccccc2)C1 | Sodium- and chloride-dependent GABA transporter 1 (Slc6a1, Rattus norvegicus, UniProt P23978) | inhibitor | – | historical reference value | – | IC50 | 200 nM
O=S(=O)(NCCNC/C=C/c1ccc(Br)cc1)c1cccc2cnccc12 | Ribosomal protein S6 kinase alpha-5 (RPS6KA5, Homo sapiens, UniProt O75582) | inhibitor | – | – | – | IC50 | 120 nM
Nc1scc2c1c(NCCO)nc1ncnc(N)c12 | CDK2 | – | – | – | – | IC50 | 500 nM
C[C@H](NC(=O)[C@H](CC(=O)NCC(C)(C)C)NC(=O)c1ccc(C(=O)NO)cc1)C(=O)NCc1ccccc1 | Protein deacetylase HDAC6 (HDAC6, Homo sapiens, UniProt Q9UBN7) | inhibitor | – | – | – | IC50 | 270 nM
CC(C)(Oc1ccc(C(=O)c2ccc(Cl)cc2)cc1)C(=O)O | PTGS2 | inhibitor | – | – | – | IC50 | 48 nM
Nc1scc2c1c(Nc1ccc(S(N)(=O)=O)cc1)nc1nc(NCCO)nc(N)c12 | CDK2 | – | – | – | – | IC50 | 8100 nM
CCn1cc(C(=O)O)c(=O)c2ccc(C)nc21 | DNA gyrase (gyrA/gyrB, Escherichia coli, UniProt P0AES4+P0AES6) | enzyme activity, inhibitor | – | – | – | IC50 | > 50000 nM and > 30000 nM
COCC(=O)N1CCC[C@H](C(=O)NCc2nc(-c3ccc(OC)cc3)cs2)C1 | PSMB1/PSMB8/PSMB3 | enzyme activity, inhibitor | – | – | – | IC50 | > 30000 nM

Repeated from above:
SMILES | target or system | test | test system | setting | how to read | measurement | value
Nc1ncnc2c1ncn2C1CCCC1 | human phosphatidylinositol 4-kinase | – | – | – | – | IC50 | ~10000 nM
Nc1scc2c1c(NCCO)nc1ncnc(N)c12 | CDK2 | – | – | – | – | IC50 | 500 nM
Cc1c(C#N)c(Nc2ccc(S(N)(=O)=O)cc2)nc2ncnc(N)c12 | CDK2 | – | – | – | – | IC50 | 10000 nM
CC1(C)c2cc(OCCN3CCOCC3)ccc2C(=O)c2c1oc1cc(C#Cc3cc(OCC4CC4)ccn3)ccc21 | Vascular endothelial growth factor receptor 2 (KDR, Homo sapiens, UniProt P35968) | inhibitor | – | – | – | IC50 | 757 nM
Cc1ccc(-c2cc(C(F)(F)F)nn2-c2ccc(C(N)=S)cc2)cc1 | PTGS2 | inhibitor | – | – | – | IC50 | 7070 nM
